Measured values of several laboratories.
Compare with care: the assays were run in different laboratories. Several values in a cell are separate wells, animals, samples, runs or records. ± gives the spread as reported.

| Structure (SMILES) | test | system | setting | how to read | quantity | result |
| --- | --- | --- | --- | --- | --- | --- |
| CN1CCN(S(=O)(=O)c2cc([N+](=O)[O-])ccc2N(CCOS(C)(=O)=O)CCOS(C)(=O)=O)CC1 |  | NSG mice, sample CA PDX | intraperitoneal, 25 mg/kg weekly x3 | reference: vehicle | EFS delay (T-C) | 58.5 days |
| CCCCC1(CCCC)CN(c2ccccc2)c2cc(SC)c(OCC(=O)N[C@@H](C(=O)NCC(=O)O)c3ccccc3)cc2S(=O)(=O)C1 | refers to: LDL cholesterol | human, serum | 15 mg once daily, day 5 |  | serum LDL-C | 79.6 mg/dL |
| C[C@H]1O[C@@H](O[C@H]2CC[C@@]3(C)[C@@H](CC[C@]4(C)[C@@H]3C=C[C@]35OC[C@@]6(CCC(C)(C)C[C@H]63)[C@@H](O)C[C@]54C)[C@]2(C)CO)[C@H](O)[C@@H](O[C@@H]2O[C@H](CO)[C@@H](O)[C@H](O)[C@H]2O)[C@H]1O |  | mouse, no ethanol, hepatic SIRT1 knockdown, liver | dose not given, high dose |  | hepatic triglycerides | 0.112 mmol/g protein and 0.0672 mmol/g protein and 0.0862 mmol/g protein and 0.059 mmol/g protein and 0.0387 mmol/g protein and 0.0741 mmol/g protein |
| c1ccc2c(c1)Nc1ccccc1S2 |  | CT26 tumour-bearing mice | intraperitoneal, 100 mg/kg equivalents daily, day 6 |  | tumour volume | 736 mm³ |
| O=C(O)/C=C/C(=O)O.Oc1cccc2[nH]cc(CCNCc3ccccc3)c12 |  | C57BL/6J mice | subcutaneous, 0.3 mg/kg |  | head twitch count | 7.3 ± 0.5 |
| N.N.[Cl][Pt][Cl] |  | SAS xenograft, KSN/Slc nude mice | dose not given, day 2, group mean |  | tumour volume | 105 mm3 |
| Cc1cn(-c2cc(NC(=O)c3ccc(C)c(Nc4nccc(-c5cccnc5)n4)c3)cc(C(F)(F)F)c2)cn1 |  | Homo sapiens | 150 mg, 6 months | direction not given | NPI score | 6.4 ± 6.8 |
| CC[C@H](C)[C@@H]1NC(=O)[C@@H]2CCCN2C(=O)[C@H](CC(C)C)NC(=O)[C@H](CC(C)C)NC(=O)CNC(=O)[C@@H](NC(=O)[C@@H](NC(=O)[C@H](CC(=O)O)NC(=O)CNC(=O)[C@@H](NC(=O)[C@H](C)NC(=O)CNC(=O)[C@H](CCCCN)NC(=O)[C@H](CC(C)C)NC(=O)[C@H](CC(C)C)NC(=O)[C@H](CCCCN)NC(=O)CNC(=O)[C@@H](NC(=O)[C@@H](N)CC(C)C)C(C)C)C(C)C)C(C)C)CSSC[C@@H](C(=O)O)NC1=O | RNA-seq, refers to: Gimap7 | mouse, traumatic brain injury model, frontal cortex and hippocampus | dose not given | reference: TBI alone | log2 fold change | -4.28 |

Repeated from above:
| Structure (SMILES) | test | system | setting | how to read | quantity | result |
| --- | --- | --- | --- | --- | --- | --- |
| CCCCC1(CCCC)CN(c2ccccc2)c2cc(SC)c(OCC(=O)N[C@@H](C(=O)NCC(=O)O)c3ccccc3)cc2S(=O)(=O)C1 | refers to: LDL cholesterol | human, serum | 15 mg once daily, day 5 |  | serum LDL-C | 79.6 mg/dL |
